Published values from different studies.
Each line is one published result; not all experiments were run side by side.
GRK7: Rhodopsin kinase GRK7 (GRK7, Homo sapiens, UniProt Q8WTQ7)
Chain of UniProt Q8WTQ7 (whole entry, looked up): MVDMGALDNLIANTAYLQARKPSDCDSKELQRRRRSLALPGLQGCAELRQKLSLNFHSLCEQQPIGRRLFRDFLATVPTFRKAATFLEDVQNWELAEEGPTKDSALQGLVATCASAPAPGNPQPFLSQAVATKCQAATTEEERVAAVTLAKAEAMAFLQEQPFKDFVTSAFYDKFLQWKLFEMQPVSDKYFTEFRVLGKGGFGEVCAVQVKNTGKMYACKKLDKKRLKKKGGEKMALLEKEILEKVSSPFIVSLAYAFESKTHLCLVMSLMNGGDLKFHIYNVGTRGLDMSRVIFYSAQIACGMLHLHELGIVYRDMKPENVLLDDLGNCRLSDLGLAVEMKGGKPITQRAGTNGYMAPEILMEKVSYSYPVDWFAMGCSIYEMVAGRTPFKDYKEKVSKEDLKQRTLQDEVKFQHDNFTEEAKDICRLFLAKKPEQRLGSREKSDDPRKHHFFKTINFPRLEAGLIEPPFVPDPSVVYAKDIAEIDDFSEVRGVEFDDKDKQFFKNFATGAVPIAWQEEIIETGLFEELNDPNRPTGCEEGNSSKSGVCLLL
Chain of UniProt P06213 (whole entry, looked up): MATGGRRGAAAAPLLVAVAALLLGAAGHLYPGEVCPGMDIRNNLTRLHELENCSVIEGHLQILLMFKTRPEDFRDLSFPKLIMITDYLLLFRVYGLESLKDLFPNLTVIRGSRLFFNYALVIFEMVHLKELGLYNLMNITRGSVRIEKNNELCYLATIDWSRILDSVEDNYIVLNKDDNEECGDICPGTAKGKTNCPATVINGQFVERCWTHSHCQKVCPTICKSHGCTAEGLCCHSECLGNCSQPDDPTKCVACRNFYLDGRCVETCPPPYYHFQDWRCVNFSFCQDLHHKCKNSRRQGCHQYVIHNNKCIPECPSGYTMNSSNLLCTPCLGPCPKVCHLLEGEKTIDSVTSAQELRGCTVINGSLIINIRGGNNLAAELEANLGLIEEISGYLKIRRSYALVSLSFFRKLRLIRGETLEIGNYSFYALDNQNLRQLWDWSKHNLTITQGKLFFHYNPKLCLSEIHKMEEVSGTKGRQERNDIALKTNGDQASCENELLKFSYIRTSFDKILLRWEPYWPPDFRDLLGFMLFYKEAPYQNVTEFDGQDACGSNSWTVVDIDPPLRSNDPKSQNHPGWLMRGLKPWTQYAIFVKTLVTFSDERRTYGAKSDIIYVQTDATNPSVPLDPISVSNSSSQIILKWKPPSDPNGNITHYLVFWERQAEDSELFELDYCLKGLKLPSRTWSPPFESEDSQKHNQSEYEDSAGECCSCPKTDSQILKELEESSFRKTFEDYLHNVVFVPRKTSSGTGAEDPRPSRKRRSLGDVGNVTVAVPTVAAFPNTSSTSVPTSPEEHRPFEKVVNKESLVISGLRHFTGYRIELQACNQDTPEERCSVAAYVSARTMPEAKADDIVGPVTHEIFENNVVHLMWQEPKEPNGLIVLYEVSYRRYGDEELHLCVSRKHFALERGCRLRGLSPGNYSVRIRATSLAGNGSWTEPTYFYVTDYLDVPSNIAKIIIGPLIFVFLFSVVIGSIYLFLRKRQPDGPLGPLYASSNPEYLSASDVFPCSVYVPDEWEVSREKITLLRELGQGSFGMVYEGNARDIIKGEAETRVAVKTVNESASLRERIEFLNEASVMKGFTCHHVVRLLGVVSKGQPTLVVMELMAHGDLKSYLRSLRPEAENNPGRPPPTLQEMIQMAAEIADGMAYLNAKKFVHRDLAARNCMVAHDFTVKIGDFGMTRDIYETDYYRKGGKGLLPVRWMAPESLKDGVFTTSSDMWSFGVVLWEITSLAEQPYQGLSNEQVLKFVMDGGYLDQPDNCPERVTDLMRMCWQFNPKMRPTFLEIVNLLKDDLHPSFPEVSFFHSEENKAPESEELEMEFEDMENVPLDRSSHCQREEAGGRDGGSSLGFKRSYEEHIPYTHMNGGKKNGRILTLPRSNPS
Chain of UniProt P24723 (whole entry, looked up): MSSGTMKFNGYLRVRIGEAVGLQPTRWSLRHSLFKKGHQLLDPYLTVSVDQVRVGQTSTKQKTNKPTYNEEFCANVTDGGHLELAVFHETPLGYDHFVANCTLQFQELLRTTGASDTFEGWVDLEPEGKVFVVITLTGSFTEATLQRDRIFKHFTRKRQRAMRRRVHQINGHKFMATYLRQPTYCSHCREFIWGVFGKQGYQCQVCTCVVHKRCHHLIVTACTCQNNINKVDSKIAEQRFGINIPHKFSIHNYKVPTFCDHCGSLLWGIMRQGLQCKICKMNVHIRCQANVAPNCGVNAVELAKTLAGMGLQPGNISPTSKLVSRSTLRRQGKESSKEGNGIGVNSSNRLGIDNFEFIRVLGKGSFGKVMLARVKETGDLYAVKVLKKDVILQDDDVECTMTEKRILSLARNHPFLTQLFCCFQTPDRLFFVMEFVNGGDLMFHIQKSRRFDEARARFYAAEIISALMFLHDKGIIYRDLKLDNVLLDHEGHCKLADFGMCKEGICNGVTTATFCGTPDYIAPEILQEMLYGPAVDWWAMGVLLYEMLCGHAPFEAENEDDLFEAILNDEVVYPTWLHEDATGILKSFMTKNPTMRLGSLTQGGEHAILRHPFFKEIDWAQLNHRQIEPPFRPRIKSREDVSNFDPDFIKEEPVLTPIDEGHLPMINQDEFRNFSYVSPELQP
Chain of UniProt Q92630 (whole entry, looked up): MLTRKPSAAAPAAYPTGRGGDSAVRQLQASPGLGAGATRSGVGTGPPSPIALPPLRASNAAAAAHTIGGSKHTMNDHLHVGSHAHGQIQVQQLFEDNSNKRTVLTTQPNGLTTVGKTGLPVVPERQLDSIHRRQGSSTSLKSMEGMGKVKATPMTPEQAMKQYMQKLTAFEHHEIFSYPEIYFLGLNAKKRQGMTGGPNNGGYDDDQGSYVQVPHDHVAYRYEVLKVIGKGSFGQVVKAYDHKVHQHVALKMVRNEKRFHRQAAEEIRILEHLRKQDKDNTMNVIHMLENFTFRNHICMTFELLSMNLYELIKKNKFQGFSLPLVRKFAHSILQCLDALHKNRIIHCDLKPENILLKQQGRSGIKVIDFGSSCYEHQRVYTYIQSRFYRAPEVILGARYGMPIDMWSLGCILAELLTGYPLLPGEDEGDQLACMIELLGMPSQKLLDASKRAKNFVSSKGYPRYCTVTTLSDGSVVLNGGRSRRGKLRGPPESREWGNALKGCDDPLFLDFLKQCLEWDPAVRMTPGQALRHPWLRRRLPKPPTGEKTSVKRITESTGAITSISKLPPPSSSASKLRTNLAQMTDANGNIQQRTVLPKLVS
Chain of UniProt Q6P2M8 (whole entry, looked up): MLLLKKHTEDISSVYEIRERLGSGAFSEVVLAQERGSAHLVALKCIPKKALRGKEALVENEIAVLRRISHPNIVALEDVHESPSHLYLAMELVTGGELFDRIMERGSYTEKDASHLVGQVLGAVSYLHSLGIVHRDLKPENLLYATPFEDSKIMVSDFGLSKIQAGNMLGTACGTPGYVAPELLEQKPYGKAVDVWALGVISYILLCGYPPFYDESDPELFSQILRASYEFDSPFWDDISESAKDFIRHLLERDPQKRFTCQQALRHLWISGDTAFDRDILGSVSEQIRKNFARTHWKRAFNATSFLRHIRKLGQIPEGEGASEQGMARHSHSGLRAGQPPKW

With Cc1cc(Nc2cc(N3CCN(C)CC3)nc(Sc3ccc(NC(=O)C4CC4)cc3)n2)[nH]n1 the remaining activity was 86% (SRC (Homo sapiens, UniProt P12931); kinase activity, KinaseProfiler; 0.03 µM, species human; reference: control).
C=CC(=O)N1CCC[C@@H](n2nc(-c3ccc(Oc4ccccc4)cc3)c3c(N)ncnc32)C1 gave a remaining activity of 85.6% (DYRK2 (Homo sapiens, UniProt Q92630); 10 µM).
O=C(NC1CCC1)c1ccc2nc(-c3cccc(NS(=O)(=O)NCCN4CCCCC4)c3)cn2c1 has a remaining activity of 100% (PNCK (Homo sapiens, UniProt Q6P2M8); enzyme activity; 10 µM).
Under “log2 fold change”, O=C(O)[C@@H]1CCCCN1 is recorded as -0.131 (binding, MIDAS equilibrium dialysis LC-MS; A2AR-BRIL thermostabilized; concentration not given; reference: no-protein control).
For Cn1cc(-c2ccc(-c3cncc(Cl)c3N3CCC4(CCNC4=O)CC3)cc2)cn1, “log2 fold change” read 2.23 (COLO 205; gene expression, microarray, item: HMOX1 mRNA; concentration not given, 6 h; reference: untreated cells).
O=C(O)c1ccc(Nc2ncc3c(n2)-c2ccc(Cl)cc2C(c2c(F)cccc2F)=NC3)cc1 has a remaining activity of 24% (Abl(h); kinase activity; 1 µM).
COc1cc(N2CCN(C)CC2)ccc1Nc1nc(N)n(C(=S)NCc2c(Cl)cccc2Cl)n1 gave a remaining activity of 16% (PRKCH (Homo sapiens, UniProt P24723); enzyme activity; 10 µM; reference: control).
With CNc1ncc2c(/C=C/C(=O)N3CCC(OC)CC3)nn(Cc3cccc(C(F)(F)F)c3)c2n1 the remaining activity was 97% (Insulin receptor (INSR, Homo sapiens, UniProt P06213); kinase activity, inhibitor; 1 µM; reference: untreated control).
The remaining activity of COc1cc(Nc2ncc3c(n2)-c2ccc(Cl)cc2C(c2c(F)cccc2OC)=NC3)ccc1C(=O)O is reported as 3% (FGR; kinase activity; 1 µM).
COc1cc(-c2cncc3c2CN(C)Cc2cc(N4CCNCC4)ccc2-3)cc(OC)c1OC gave a remaining activity of 102% (GRK7; kinase activity; 1 µM, human enzyme, added: ATP 10 µM; reference: DMSO control).
CC(C)(CO[P@@](=O)(O)O[P@@](=O)(O)OC[C@H]1O[C@@H](n2cnc3c(N)ncnc32)[C@H](O)[C@@H]1OP(=O)(O)O)[C@@H](O)C(=O)NCCC(=O)NCCSC(=O)CC(=O)O: “log2 fold change” -0.165 (binding, MIDAS equilibrium dialysis LC-MS; A2AR-BRIL thermostabilized; concentration not given; reference: no-protein control).
COc1cc(F)ccc1-c1ncnc(Nc2cccc(C[S@](C)(=N)=O)c2)n1 has a remaining activity of 95% (GRK7; kinase activity; 10 µM, added: 10 µM ATP).

Repeated from above:
COc1cc(N2CCN(C)CC2)ccc1Nc1nc(N)n(C(=S)NCc2c(Cl)cccc2Cl)n1 gave a remaining activity of 16% (PRKCH (Homo sapiens, UniProt P24723); enzyme activity; 10 µM; reference: control).
Under “log2 fold change”, O=C(O)[C@@H]1CCCCN1 is recorded as -0.131 (binding, MIDAS equilibrium dialysis LC-MS; A2AR-BRIL thermostabilized; concentration not given; reference: no-protein control).
